# Measured values collected from several papers.
# Numbers after ± are the reported error.
# UniProt P25101, sequence (whole entry, looked up): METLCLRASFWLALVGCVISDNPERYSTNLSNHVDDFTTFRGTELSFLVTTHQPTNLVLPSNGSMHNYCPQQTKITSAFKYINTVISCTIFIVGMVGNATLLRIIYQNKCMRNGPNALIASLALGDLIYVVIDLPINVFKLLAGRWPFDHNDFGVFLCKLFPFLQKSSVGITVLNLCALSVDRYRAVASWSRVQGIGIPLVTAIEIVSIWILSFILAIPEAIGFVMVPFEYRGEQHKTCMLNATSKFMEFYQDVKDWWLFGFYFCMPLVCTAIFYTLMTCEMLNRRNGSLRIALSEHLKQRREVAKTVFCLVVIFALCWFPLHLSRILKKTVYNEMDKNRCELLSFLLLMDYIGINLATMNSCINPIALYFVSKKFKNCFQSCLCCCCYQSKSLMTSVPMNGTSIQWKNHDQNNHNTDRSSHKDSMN
# UniProt O43684, sequence (whole entry, looked up): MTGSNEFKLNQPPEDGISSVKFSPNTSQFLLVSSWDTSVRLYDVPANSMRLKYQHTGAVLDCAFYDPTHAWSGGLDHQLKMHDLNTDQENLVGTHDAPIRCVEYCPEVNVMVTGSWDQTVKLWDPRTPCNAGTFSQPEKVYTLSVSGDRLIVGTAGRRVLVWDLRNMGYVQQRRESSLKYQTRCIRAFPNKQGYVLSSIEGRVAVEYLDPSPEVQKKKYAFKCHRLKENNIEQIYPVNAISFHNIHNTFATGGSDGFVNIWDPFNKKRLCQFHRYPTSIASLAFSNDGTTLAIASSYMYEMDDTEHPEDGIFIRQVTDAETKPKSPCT
# UniProt P35348, sequence (whole entry, looked up): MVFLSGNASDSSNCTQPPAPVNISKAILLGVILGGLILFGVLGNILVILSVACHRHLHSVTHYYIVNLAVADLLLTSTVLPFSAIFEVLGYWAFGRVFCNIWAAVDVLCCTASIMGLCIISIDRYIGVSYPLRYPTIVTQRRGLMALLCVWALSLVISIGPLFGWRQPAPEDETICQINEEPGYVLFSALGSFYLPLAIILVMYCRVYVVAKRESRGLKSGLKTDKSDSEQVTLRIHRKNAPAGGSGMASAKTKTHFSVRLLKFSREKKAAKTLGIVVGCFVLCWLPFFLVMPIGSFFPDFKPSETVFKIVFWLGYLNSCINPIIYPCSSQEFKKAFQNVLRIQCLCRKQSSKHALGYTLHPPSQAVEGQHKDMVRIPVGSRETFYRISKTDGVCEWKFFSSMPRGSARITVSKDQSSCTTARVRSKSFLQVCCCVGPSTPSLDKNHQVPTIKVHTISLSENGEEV
SMILES,target or system,test,system,setting,how to read,endpoint,value
CN1CCN(S(=O)(=O)c2cc([N+](=O)[O-])ccc2N(CCOS(C)(=O)=O)CCOS(C)(=O)=O)CC1,,,"naive NOD/SCID mice, pooled blood","intraperitoneal, 25 mg/kg, week 4",,globulin,16 g/L
Clc1ccc(-c2ccccc2)cc1,,,"female Sprague-Dawley rats, serum","inhalation, 23 µg/rat, 0 h after exposure",,total protein,5 ± 1 g/dL
CC[C@H](C)[C@@H]1NC(=O)[C@@H]2CCCN2C(=O)[C@H](CC(C)C)NC(=O)[C@H](CC(C)C)NC(=O)CNC(=O)[C@@H](NC(=O)[C@@H](NC(=O)[C@H](CC(=O)O)NC(=O)CNC(=O)[C@@H](NC(=O)[C@H](C)NC(=O)CNC(=O)[C@H](CCCCN)NC(=O)[C@H](CC(C)C)NC(=O)[C@H](CC(C)C)NC(=O)[C@H](CCCCN)NC(=O)CNC(=O)[C@@H](NC(=O)[C@@H](N)CC(C)C)C(C)C)C(C)C)C(C)C)CSSC[C@@H](C(=O)O)NC1=O,,"RNA-seq, refers to: Aqp1","mouse, traumatic brain injury model, frontal cortex and hippocampus",dose not given,reference: TBI alone,log2 fold change,-2.25
COc1ccc(N2C(=O)N(c3c(C)cccc3Cl)Cc3cnc(Nc4ccc(C5CCN(C)CC5)cc4OC)nc32)nc1,"MET (Homo sapiens, UniProt P08581)",kinase activity,,0.5 µM,,inhibition,5%
CC(C)[C@@H]1NC(=O)CNC(=O)[C@H](CC(N)=O)NC(=O)[C@H](CCCNC(=N)N)NC(=O)[C@H](Cc2ccc(O)cc2)NC(=O)[C@H](C(C)C)NC(=O)[C@@H](NC(=O)[C@@H](NC(=O)[C@H](CC(N)=O)NC(=O)[C@H](Cc2c[nH]c3ccccc23)NC(=O)[C@H](C)NC(=O)[C@H](Cc2ccccc2)NC(=O)CN)C(C)C)CSSC[C@@H](C(=O)N[C@@H](Cc2c[nH]cn2)C(=O)N[C@@H](CCCNC(=N)N)C(=O)N[C@@H](CCCNC(=N)N)C(=O)N[C@@H](C)C(=O)N[C@@H](CC(N)=O)C(N)=O)NC(=O)[C@H](C(C)C)NC(=O)[C@H](CCCNC(=N)N)NC1=O,,"circular dichroism, refers to: Random-coil",PBS,"80 µM, pH 7.4, added: LTA 1 µM",,secondary structure content,33.7%
O=C(Nc1cnccc1Cl)N1CCN(Cc2ccc3c(c2)OC(F)(F)O3)CC1,,,culture medium without cells,"100 nM, 24 h",,concentration,93.3 ± 2.8 nM
O=C(c1ccc(F)c(F)c1Nc1ccc(I)cc1F)N1CC(O)([C@@H]2CCCCN2)C1,,,human patients,"oral, 1 mg/kg, age ≥18 years",,serious adverse events,100%
N#C[C@H](O[C@@H]1O[C@H](CO)[C@@H](O)[C@H](O)[C@H]1O)c1ccccc1,,,"Sprague Dawley rat, plasma","oral, 10 g lyophilized powder/kg, high dose",,Tmax,0.58 ± 0.26 h
CN(C(=O)n1cnc(-c2ccc[n+]([O-])c2)c1)C1CCCCC1,,,medium without cells,"100 nM, 0 h",,concentration,90 ± 5 nM
CC[C@H](C)[C@H](NC(=O)[C@H](Cc1ccccc1)NC(=O)[C@H](CCC(=O)O)NC(=O)[C@H](CCCNC(=N)N)NC(=O)[C@H](C)NC(=O)[C@H](C)NC(=O)[C@H](CCC(N)=O)NC(=O)[C@H](CCC(=O)O)NC(=O)[C@H](CCC(=O)O)NC(=O)[C@H](CC(C)C)NC(=O)[C@H](Cc1ccc(O)cc1)NC(=O)[C@H](CO)NC(=O)[C@H](CO)NC(=O)[C@@H](NC(=O)[C@H](CC(=O)O)NC(=O)[C@H](CO)NC(=O)[C@@H](NC(=O)[C@H](Cc1ccccc1)NC(=O)[C@@H](NC(=O)CNC(=O)[C@H](CCC(=O)O)NC(=O)[C@H](C)NC(=O)CCc1c[nH]cn1)[C@@H](C)O)[C@@H](C)O)C(C)C)C(=O)N[C@@H](C)C(=O)N[C@@H](Cc1c[nH]c2ccccc12)C(=O)N[C@@H](CC(C)C)C(=O)N[C@H](C(=O)N[C@@H](CCCNC(=N)N)C(=O)NCC(=O)N[C@@H](CCCNC(=N)N)C(=O)N[C@@H](CCCCNC(=O)COCCOCCNC(=O)COCCOCCNC(=O)CC[C@H](NC(=O)CCCCCCCCCCCCCCCCC(=O)O)C(=O)O)C(=O)NCC(=O)NCC(=O)N[C@@H](CO)C(=O)N[C@@H](CCCCNc1c(NCCCCCN(O)C(=O)CCC(=O)NCCCCCN(O)C(=O)CCC(=O)NCCCCCN(O)C(C)=O)c(=O)c1=O)C(=O)O)C(C)C [zirconium-89 labelled],,,"rat, stomach","iv, 3 nmol/kg, 4 h, ex vivo",,tissue uptake,0.34 %ID/g
CCc1ccc(CC/C=C/c2ccc3c(c2)C(=O)CC3)cc1,,,"Sprague-Dawley rat, male, blood","oral, 30 mg/kg/day, 14 days",,mean platelet volume,11.3 fL
CC(C)(O)c1cnc2ncc(-c3ccc(F)c(-c4c(F)cccc4C#N)c3)n2n1,,food-maintained responding,rhesus monkey,"intramuscular, dose not given, 180 min, acute dependence model, added: midazolam 1 mg/kg",,precipitated withdrawal,no effect
COc1ccc2c(c1)CN(C(=O)CCN1CCC(Cc3ccccc3)CC1)CC[S@@+]2[O-],,,"female beagle dogs, chronic AV block","intravenous, 3 mg/kg, 3 h",,QTcF,302 ± 12 ms
C[C@]1(CO)Cc2ncn(-c3ccc(C#N)c(Cl)c3)c2C(=O)O1,,refers to: involuntary muscle contractions,human,80 mg single dose,,subjects with drug-related TEAE,0%
COc1ccc(CCC2CCCC(CCc3ccc(OC)cc3)N2C[C@@H](O)CO)cc1.Cl (stereo in doubt),,,rabbit Purkinje fibres,"0.1 µM, cycle length 0.5 s",reference: baseline,resting membrane potential change,0.1 ± 1.4 mV
CN1CCN(c2cc(-c3ccncc3)c(-c3ccc4ccccc4c3)nn2)CC1,"ADRA1A (Homo sapiens, UniProt P35348)","agonist, FLIPR",,12.5 µM,,activation,-0.7%
COc1ncccc1-c1cnn2ccc(N3CCN(C(=O)OC(C)C)CC3)nc12,,,"mouse nerve ligation model, plasma","oral, 3 mg/kg, 120 min after last dose, repeat dosing day 2",,drug concentration,2000 nM
Cc1cccc(Cn2nc(C3CC3)c3c(NC(=O)c4cnc5cc(OCCN6CCN(C)CC6)ccn45)cccc32)n1,,"CTCAE v4.03, refers to: blood CPK increased",platinum-resistant ovarian cancer patients,"oral, dose not given, added: pembrolizumab IV every 3 weeks",,all-cause adverse events,18.2%
CNC(=O)CC1C(=O)N(C2CCN(C3CCC(C(C)C)CC3)CC2)c2ccccc21 (centres unmarked),,,conscious Sprague-Dawley rat,"intravenous bolus, 100 nmol/kg",,onset of sedation,≤ 15 s
C[N+]1(C)[C@@H]2C[C@@H](OC(=O)C(O)(c3cccs3)c3cccs3)C[C@H]1[C@@H]1O[C@@H]12,,,dog,oral,,absorption rate constant,0.2 h⁻¹
C=CC(=O)N1CC[C@H](n2nc(C#Cc3cc(OC)cc(OC)c3)c3c(N)ncnc32)C1,,,patients with advanced solid tumours,"oral, dose not given, Hyperphosphatemia, any grade, QD, added: ferric citrate hydrate",,adverse drug reaction incidence,100%
COc1cc(Nc2ncc(F)c(Nc3ccc4c(n3)NC(=O)C(C)(C)O4)n2)cc(OC)c1OC,"EDNRA (Homo sapiens, UniProt P25101)",,,,,IC50,> 10 µM
CC(=O)c1c(C)c2cnc(Nc3ccc(C4CCN(CCS(C)(=O)=O)CC4)cn3)nc2n(C2CCCC2)c1=O,,,"human, dose-escalation trial, plasma","oral, 75 mg twice daily, day 21, multiple doses",,Cmax,242 ng/mL
CO[C@H]1C[C@@H]2CC[C@@H](C)[C@@](O)(O2)C(=O)C(=O)N2CCCC[C@H]2C(=O)O[C@H]([C@H](C)C[C@@H]2CC[C@@H](OC(=O)NCCOCCOCCOCCOCCOCCOCCOCCOCCC(=O)N3CCc4cc(Cn5nc(-c6ccc7oc(N)nc7c6)c6c(N)ncnc65)ccc4C3)[C@H](OC)C2)C[C@@H](O)[C@H](C)/C=C(\C)[C@@H](O)[C@@H](OC)C(=O)[C@H](C)C[C@H](C)/C=C/C=C/C=C/1C,,"phase 1 dose escalation, refers to: mucositis",advanced solid tumour patients,"intravenous, 8 mg weekly, any grade",,dose-reducing adverse events,0%
CC(C)[C@H](O)C(=O)N[C@H]1Cc2ccc3c(c2)[C@]2(C4=C(c5nc(CO)co5)N=C(O4)[C@H](C(C)(C)C)NC1=O)c1cc(F)ccc1N[C@@H]2O3,,,"NSG mice, heart","intravenous, 10 mg/kg, single dose at MTD, added: paclitaxel 40 mg/kg",,Cmax,1300 ng/mL
CCN1CCN(Cc2ccc(Nc3ncc(F)c(-c4cc(F)c5nc6n(c5c4)[C@H](C)CCC6)n3)nc2)CC1,,,advanced solid tumour patients,"dose not given, Phase Ia monotherapy",,"Hypercholesterolemia incidence, any grade",62.5%
COc1ccc(-c2c(-c3ccc(C#N)c(F)c3)nc(N3CCC(N)CC3)n(C)c2=O)cc1F,,refers to: Colitis,human patients,"oral, 60 mg, dose expansion",,serious adverse event incidence,0%
CC1(C)C(C=C(Cl)Cl)C1C(=O)OC(C#N)c1ccc(F)c(Oc2ccccc2)c1 (centres unmarked),,refers to: CYP2C8,"human, age 1 year, recombinant human CYP2C8",0.1 µM,,enzyme contribution to clearance,0.66%
C[C@@H](NC(=O)N1C(=O)[C@H](Cc2ccnc(N)c2)[C@H]1C(=O)O)C1CCCCC1,,,healthy Chinese adult volunteers,"continuous intravenous infusion, 2.25 mg/kg/h, 5.0 days, CTCAE 5.0, all doses",,urine leukocyte esterase positive,0%
C[C@H]1CN(c2n[nH]c3nc(N[C@H]4CC[C@H](NS(=O)(=O)CCC(F)(F)F)CC4)ncc23)CCO1,"Mitotic checkpoint protein BUB3 (Homo sapiens, UniProt O43684)","Kinobeads competition, refers to: BUB3",,"0.8 µM, unit not given",reference: vehicle,remaining binding,1.15
COc1cc2c(Oc3ccc4[nH]c(C)cc4c3F)ccnc2cc1OCC1(N)CC1,,,paediatric recurrent refractory sarcoma,12 mg,,Hyperthyroidism incidence,9.1%
O=S(=O)(Nc1ccccc1)c1ccc(NC(=S)Nc2ccccc2)cc1,,,"mouse, male, blood","oral, 80 mg/kg daily, 14 days",,mean platelet volume,4.58 fL
CNC(=O)N(N(CCCl)S(C)(=O)=O)S(C)(=O)=O,,,1 mM potassium phosphate,50 °C,reference: pH 7.6 over pH 7.2,half-life ratio,~2.4 fold
COc1ccc(C[C@@H]2NC(=O)[C@H]([C@@H](C)O)NC(=O)[C@@H]3[C@@H]4CCN3C(=O)[C@@H]3Cc5cn(c6ccc(F)cc56)CCCCCCN(Cc5ccc(cc5)CCNC(=O)[C@]5(C)CCCN5C2=O)C(=O)CCC(=O)N[C@@H](C)C(=O)N[C@H](CNC(=O)CCCCC[N+](C)(C)C)C(=O)N[C@@H](Cc2cccc(c2)CNC(=O)CO4)C(=O)N3)cc1,,refers to: Wound,humans,"concentration not given, Study-001",,participants with adverse event,2%
C[C@]1(O)C[C@@](N)(c2ccc(-c3nc4n(c3-c3ccccc3)COc3ccncc3-4)cc2)C1,,,"human, advanced or metastatic solid tumours","once daily, dose escalation total",,patients with grade ≥3 Dyspnea TEAE,11.1%
O[C@H]1CCCN[C@@H]1CCCn1cnc2c(Cl)c(Cl)ccc21,,,"healthy CYP2D6 EM and UM, plasma","oral, 150 mg",,Cmax geometric LS mean,217 ng/mL
O=C1Nc2cc3[nH]nc(-c4ccncc4)c3cc2CN1Cc1ccccc1,,CTCAE v4.03,advanced solid tumour patients,"intravenous, 1.8 mg/kg, schedules 1/2",,patients with back pain,100%
NCCCC[C@@H]1NC(=O)[C@@H](Cc2c[nH]c3ccccc23)NC(=O)[C@H](c2ccccc2)NC(=O)[C@@H]2C[C@@H](OC(=O)NCCN)CN2C(=O)[C@H](Cc2ccccc2)NC(=O)[C@H](Cc2ccc(OCc3ccccc3)cc2)NC1=O,,,healthy human volunteers,600 µg twice daily,,subjects with adverse event Hyperhidrosis,2%
N#C/N=C1\SCCN1Cc1ccc(Cl)nc1,,,soil,"56 days, nominal 10",,concentration,0.05 mg/kg dry soil
CCC[C@@](N)(CO)CCc1ccc(OCCCCCC(C)C)cc1,,,"hound dogs, male","oral, 5 mg/kg, capsule, fed state, geometric mean",,AUC(0-inf),5.45 µM·h
Cc1cc(C)c(CNC(=O)c2cc(Cl)c3c(c2C)O[C@@](C)([C@H]2CC[C@H](N(C)C)CC2)O3)c(=O)[nH]1,,,relapsed/refractory NHL patients,"dose not given, all TEAEs, safety set",,grade 5 AST increased incidence,0%
O=C(Nc1ccccc1)C1CCN(C(=O)Oc2cccnc2)CC1,,adverse event reporting,healthy women,"oral, 100 mg, 9 days",,subjects with Overall adverse event,100%
CN1CC[C@@H](c2c(O)cc(O)c3c(=O)cc(-c4ccc(C(F)(F)F)cc4Cl)oc23)[C@@H]1CO,,refers to: Hypotension,relapsed or refractory haematological malignancies,"oral, dose not given, grade 3 to 4, all arms",,patients with adverse event,7.5%
CC/C(=C(\c1ccccc1)c1ccc(OCCN(C)C)cc1)c1ccccc1,,,"CD-1 mouse, male, plasma","intraperitoneal, 30 mg/kg",,half-life,8.97 h

# Some of these lines once more:
SMILES,target or system,test,system,setting,how to read,endpoint,value
CNC(=O)N(N(CCCl)S(C)(=O)=O)S(C)(=O)=O,,,1 mM potassium phosphate,50 °C,reference: pH 7.6 over pH 7.2,half-life ratio,~2.4 fold
CO[C@H]1C[C@@H]2CC[C@@H](C)[C@@](O)(O2)C(=O)C(=O)N2CCCC[C@H]2C(=O)O[C@H]([C@H](C)C[C@@H]2CC[C@@H](OC(=O)NCCOCCOCCOCCOCCOCCOCCOCCOCCC(=O)N3CCc4cc(Cn5nc(-c6ccc7oc(N)nc7c6)c6c(N)ncnc65)ccc4C3)[C@H](OC)C2)C[C@@H](O)[C@H](C)/C=C(\C)[C@@H](O)[C@@H](OC)C(=O)[C@H](C)C[C@H](C)/C=C/C=C/C=C/1C,,"phase 1 dose escalation, refers to: mucositis",advanced solid tumour patients,"intravenous, 8 mg weekly, any grade",,dose-reducing adverse events,0%
COc1cc2c(Oc3ccc4[nH]c(C)cc4c3F)ccnc2cc1OCC1(N)CC1,,,paediatric recurrent refractory sarcoma,12 mg,,Hyperthyroidism incidence,9.1%
CC[C@H](C)[C@@H]1NC(=O)[C@@H]2CCCN2C(=O)[C@H](CC(C)C)NC(=O)[C@H](CC(C)C)NC(=O)CNC(=O)[C@@H](NC(=O)[C@@H](NC(=O)[C@H](CC(=O)O)NC(=O)CNC(=O)[C@@H](NC(=O)[C@H](C)NC(=O)CNC(=O)[C@H](CCCCN)NC(=O)[C@H](CC(C)C)NC(=O)[C@H](CC(C)C)NC(=O)[C@H](CCCCN)NC(=O)CNC(=O)[C@@H](NC(=O)[C@@H](N)CC(C)C)C(C)C)C(C)C)C(C)C)CSSC[C@@H](C(=O)O)NC1=O,,"RNA-seq, refers to: Aqp1","mouse, traumatic brain injury model, frontal cortex and hippocampus",dose not given,reference: TBI alone,log2 fold change,-2.25
